# Results collected from several papers.
# Every numbered part comes from another study and shows a few of its results, in no order.

# Series 1
# Target: Ras GTPase-activating protein-binding protein 1, C-terminal RGG region (G3BP1, Homo sapiens, UniProt Q13283)
# UniProt Q13283, sequence (whole entry, looked up): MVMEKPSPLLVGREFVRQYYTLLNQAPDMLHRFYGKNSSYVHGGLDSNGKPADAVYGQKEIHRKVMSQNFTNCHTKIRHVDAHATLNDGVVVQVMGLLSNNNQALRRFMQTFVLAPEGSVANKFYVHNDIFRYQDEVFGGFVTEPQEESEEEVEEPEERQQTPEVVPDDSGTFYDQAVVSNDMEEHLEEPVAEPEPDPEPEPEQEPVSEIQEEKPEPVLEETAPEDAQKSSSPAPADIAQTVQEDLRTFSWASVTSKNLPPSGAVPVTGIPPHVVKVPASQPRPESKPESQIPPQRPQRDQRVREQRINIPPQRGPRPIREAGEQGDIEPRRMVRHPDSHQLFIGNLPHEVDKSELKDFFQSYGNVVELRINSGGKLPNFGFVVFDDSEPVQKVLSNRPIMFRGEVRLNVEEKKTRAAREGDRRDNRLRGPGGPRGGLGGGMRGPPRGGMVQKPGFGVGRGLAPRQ
# Technique: RNA Bind-n-Seq
# Form: RNA
# Sample: in vitro
# Concentration: 1 µM
# Setting: whole 134-nt RNA, ends assumed
# Added: 150 mM KCl
# Baseline: input library
# Reading: higher = stronger binding
# Shared flanks, not repeated: GGGAGUUCUACAGUCCGACGAUC … UGGAAUUCUCGGGUGUCAAGG
Strand,log2 enrichment
CAAGUCCUGUGCUACACAUCGUAUGUACCGAAUCGGGCCCCGGCCCCGGCCCCGGGAAAGUAUUAUGUUACGCCGUUCGGAUCUGCACUU,-2.18
CCUCAAGUCCUGUGCUACACAUCGUAUGUACCGAAUCGGGGAGGAGGGAGGGGAAAGUAUUAUGUUACGCCGUUCGGAUCUGCACUUCCA,0.765
UGGGAGGUGGAUUUUGUUUAUUUUUUUAGCUCAUUUCCAGGGGUGGGAAUUUUUUUUUAAUAUGUGUCAUGAAUAAAGUUGUUUUUUAAA,3.47
CUCAAGUCCUGUGCUACACAUCGUAUGUACCGAAUCGGUUGGGGUUGGUUGGGGAAAGUAUUAUGUUACGCCGUUCGGAUCUGCACUUCC,0.447
UCCUGUGCUACACAUCGUAUGUACCGAAUCGGGGUUUUUGGUUUUUGGGGUUUUUGGGGAAAGUAUUAUGUUACGCCGUUCGGAUCUGCA,-0.35
GCAGGAAGUAAAAACAAAUGUAAAUGCUUCGGAUAGUGGCAGGGGUGGGGGUUGCUAAGGAAAGGGUGGGAUGGGAGUGGGUAAAGAGUU,2.13
CAAGUCCUGUGCUACACAUCGUAUGUACCGAAUCGGUUUUUGGUUUUUUUGGAGGAAAGUAUUAUGUUACGCCGUUCGGAUCUGCACUUC,-1.5
UAACUUUAGAGGAGGAUCAGAUGGAUAUGGCAGUGGACGUGGAUUUGGGGAUGGCUAUAAUGGGUAUGGAGGAGGACCUGGAGGUGGCAA,-1.13
AAGUCCUGUGCUACACAUCGUAUGUACCGAAUCGGGUGGGAAAAAAAGGGAAAGGGAAAGUAUUAUGUUACGCCGUUCGGAUCUGCACUU,0.503
CCUCAAGUCCUGUGCUACACAUCGUAUGUACCGAAUCGGAGGAAAGGAAAGGAAAGUAUUAUGUUACGCCGUUCGGAUCUGCACUUCCAG,-1.02
UCCUGUGCUACACAUCGUAUGUACCGAAUCGGAAAAAAGGGGAAAAAAGGAAAAAAGGGAAAGUAUUAUGUUACGCCGUUCGGAUCUGCA,-1.31
UGUGCUACACAUCGUAUGUACCGAAUCGGGGAAAAAAAGGGGUUUUUUUGGGGAAAAAGGGGAAAGUAUUAUGUUACGCCGUUCGGAUCU,0.356
UAACUUUAGAGGAGGAACUGAUGGAUAUGGCAGUGGACGUGGAUUUGGGGAUGGCUAUAAUGGGUAUGGAGGAGGACCUGGAGGUGGCAA,-0.929
ACCAUGCAGGUGGGCAUCUUUGGGAAGUGGGGCAAGGGGGGGAUAGGGAGGGGGGUAACACUUUGGGAACUGGUGGUCCCAGGUCGUUUC,2.02

# Series 2
# Target: Phosphate system positive regulatory protein PHO4, full length, GST-tagged (PHO4, Saccharomyces cerevisiae, UniProt P07270, residues 1-312)
# Technique: competition protein-binding microarray
# Form: double-stranded DNA, one strand shown
# Sample: in vitro
# Concentration: 2 µM
# Setting: whole 60-bp probe, lowest competitor level
# Added: Cbf1 competitor, 0.05 µM
# Reading: higher = stronger binding
# Shared flanks, not repeated: … GTCTTGATTCGCTTGACGCTGCTG
# Construct (chain): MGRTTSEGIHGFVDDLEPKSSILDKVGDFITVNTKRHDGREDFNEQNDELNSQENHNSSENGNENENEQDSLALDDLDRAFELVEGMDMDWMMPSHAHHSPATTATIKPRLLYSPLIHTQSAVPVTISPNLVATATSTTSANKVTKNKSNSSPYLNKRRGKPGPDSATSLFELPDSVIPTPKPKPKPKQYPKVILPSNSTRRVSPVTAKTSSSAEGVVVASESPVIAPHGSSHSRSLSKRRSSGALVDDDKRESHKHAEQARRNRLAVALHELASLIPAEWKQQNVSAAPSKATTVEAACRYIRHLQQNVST
Strand,fluorescence intensity
CTTTCCCGATCTTGTCACTTAACTTTAGCACATTTG,3760 a.u.
CGGGGTTAAGTTTCACACGTGTTTTGCTTGCAGCAG,15200 a.u.
CATACCCAACCTTGCAGGGTGGGTGAAGATATTTGT,4650 a.u.
CATACCCAACCTTGATTCGTGGGTGAAGATATTTGT,6400 a.u.
CCTCAGGAGCGCCGCCATGTGGGATGGAATAGCACA,10300 a.u.
CGTCCTAGTGATTGGTTCGTGGGTGCCATGAGGAAG,9480 a.u.
CTTCTGTAAATTTGTCGTGTGGGTGGACGCGCCCCG,4950 a.u.
TACGAAAGATGGAAACACATGCAGAGAATGTGGTCT,10000 a.u.
AAAGTATTTTACTGGCACGATGCATCCATGGGACTA,11100 a.u.
AAAGCGGTAATTTGTCACTGCACTTCACATATCTAT,4020 a.u.
AAAGCGGTAATTTGTACTGTGGGTGCAGATATCTAT,3780 a.u.
CCTCAGGAAGACCTAAATGTGACGGTTCATCGTAGT,4420 a.u.
CTAACGAAGGTTTGCTAAGTGGGTGACAAGCCAAGT,3420 a.u.
TGGGGTGTCTGCCATCACGCTTTCCATTTGCACTGT,6670 a.u.
TGTGTCAATAACCCCATAATTTGAACTTCTTTCATC,3140 a.u.
CGGGGTTAAGTTTGAGAAGTGGGTGGCTTGCAGCAG,4410 a.u.
TGACAGATGCCATGGCGCTACTGTTGTAGTATTGTA,3840 a.u.
CTTCTGTAAATTTTTCACGTGATTTGACGCGCCCCG,11900 a.u.
GTTTCACTTGCGTACTTCGTGCCAGGCTTGATGGCT,6320 a.u.
AAATTACTAAGTTTTCACGTGTGTTACCCCGTATGA,12600 a.u.
TTTCTCTTTGAGGTTCACGTTCACTTCTGCTACCAT,7240 a.u.
GCTCCCTCAGCCCCGGGCGTGCTTTGACGCTATTCC,6940 a.u.

# Series 3
# Target: Interferon regulatory factor 5, full length, phosphomimetic (IRF5, Homo sapiens, UniProt Q13568-2, residues 1-514, K96S/S451D/S453D/S456D/S462D)
# Technique: protein-binding microarray
# Form: double-stranded DNA, one strand shown
# Sample: in vitro
# Concentration: 250 nM
# Setting: 60-bp whole probe
# Added: salmon DNA 0.4 mg/ml
# Baseline: random background probes
# Reading: higher = stronger binding
# Shared flanks, not repeated: GCCTAGCAC … GTCTTGATTCGCTTGACGCTGCTG
Strand,log fluorescence
TTAGATTTCAGTAACGATTAGTGCTAG,1.75 z-score
GACGAACTGAGTATCGAGGCGTGCTAG,1.09 z-score
GACGATATCGGCTTTCGAGACGTGCTA,4.08 z-score
GTCGATATCGGGACTGGAGACGTGCTA,1.75 z-score
TTAGGTATCGGTTGCGGTTAGTGCTAG,8.06 z-score
TTAGATTTCAGCCTGGATTAGTGCTAG,0.724 z-score
TTAGGACTGGGTCTCTGTTAGTGCTAG,-0.454 z-score
CTAGGTTTCGGTTCCGGTTAGTGCTAG,10.2 z-score
GCCGATATCAGTATCGAGACGTGCTAG,4.06 z-score
GAAGATATCAGTTTCGAGACGTGCTAG,6.51 z-score
ATATACCTGTATATCTTCAGGTGCTAG,0.362 z-score
GACGGTTTCGATACTGGGGACGTGCTA,8.65 z-score
TTTCTTACATGCATCATAACGTGCTAG,3.6 z-score
GACTGTATCGGGTATCGGGACGTGCTA,3.55 z-score
GACCGTTTCCTACTGCTGACGTGCTAG,0.416 z-score
TTAGGTTTCGAGACTGGGTTAGTGCTA,4.75 z-score
GACGGACTGGACACTGGGGAGGTGCTA,-0.523 z-score
GACGGACTGGACTATCGGGATGTGCTA,1.02 z-score
TCAGGTTTCGGTATCGGTTAGTGCTAG,11 z-score
TCATTATTAAAACTTCATACTGTGCTA,0.912 z-score
GACGGTATCGGTATCGTGACGTGCTAG,5.53 z-score

# Series 4
# Target: Protein C-ets-1 (ETS1, Homo sapiens, UniProt P14921, residues 1-441, K379A, full length assumed)
# UniProt P14921, sequence (whole entry, unmodified, looked up): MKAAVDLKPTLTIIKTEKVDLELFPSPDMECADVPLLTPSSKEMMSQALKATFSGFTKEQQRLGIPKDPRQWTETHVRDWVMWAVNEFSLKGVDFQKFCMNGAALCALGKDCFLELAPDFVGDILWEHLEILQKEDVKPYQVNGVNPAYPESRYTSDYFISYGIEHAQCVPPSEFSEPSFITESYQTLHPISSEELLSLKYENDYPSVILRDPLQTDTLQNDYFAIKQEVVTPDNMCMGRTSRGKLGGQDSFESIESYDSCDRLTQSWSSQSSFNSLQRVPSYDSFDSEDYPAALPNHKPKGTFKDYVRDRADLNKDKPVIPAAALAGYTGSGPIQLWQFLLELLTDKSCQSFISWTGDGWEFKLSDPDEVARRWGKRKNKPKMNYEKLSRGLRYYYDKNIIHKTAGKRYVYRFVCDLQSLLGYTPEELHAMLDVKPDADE
# Technique: protein-binding microarray
# Form: double-stranded DNA, one strand shown
# Sample: in vitro
# Concentration: not given
# Setting: k-mer, scored over probes, only values ≥0.25
# Reading: higher = stronger binding
Strand,E-score
AACCCCGG,0.387
CCCGCCCC,0.458
ACCGGACA,0.272
CGCATTTC,0.278
CCCACCCG,0.369
ACCGACGT,0.382
ACGATACA,0.272
ACGCCGGG,0.287
CATGTGTA,0.258
CCGGTCAG,0.356
CCCCTCCC,0.257
AATAACTG,0.274
TTACCGAA,0.319
GCCCCGCC,0.359
AACGATAT,0.312
TAACGTAA,0.279
GCGGGGAA,0.278
CCGCCCGC,0.323
TTCCGGAA,0.447
AGTACCGG,0.361
ACAGTACA,0.317
CCGGCACG,0.309
ATGGTTAG,0.262

# Series 5
# Target: Histone acetyltransferase KAT6A, winged helix 2, GST fusion (KAT6A, Homo sapiens, UniProt Q92794, residues 85-181)
# Technique: protein binding microarray
# Form: double-stranded DNA, one strand shown
# Sample: in vitro
# Concentration: not given
# Setting: 8-mer, flanks averaged, mean of 2 arrays, mostly near background
# Baseline: not given
# Reading: higher = stronger binding
# Target sequence (chain): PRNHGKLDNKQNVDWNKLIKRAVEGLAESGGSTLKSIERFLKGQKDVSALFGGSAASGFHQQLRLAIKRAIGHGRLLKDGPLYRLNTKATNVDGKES
Strand,E-score
GCGTCGGA,0.0893
CTTAAATA,-0.0939
GGTGATCA,0.0481
CTCATTCC,-0.0952
CAGTGCGA,-0.0783
ACGTCTCG,-0.0694
CGCTTGCA,0.0475
CGTTCCCA,-0.0507
AAGGTTCG,0.0348
CTATGCTA,0.102
ATGGTGCG,-0.0359
GTCAAAAA,0.0631
CCCATACG,-0.132
AGGTATAG,-0.16
GACTGTCC,-0.17
CCGACTTA,0.117
GCGGTGAA,-0.033
CGTCATAC,0.0453
ATTGCGCC,0.0436
ACCCGGAG,0.226
AGCCATGA,0.0325
CACCACCC,0.0152
CAATACGC,-0.148

# Some of these lines once more (series 3):
Strand,log fluorescence
TTAGGTATCGGTTGCGGTTAGTGCTAG,8.06 z-score
TTAGATTTCAGCCTGGATTAGTGCTAG,0.724 z-score
TTAGGACTGGGTCTCTGTTAGTGCTAG,-0.454 z-score
CTAGGTTTCGGTTCCGGTTAGTGCTAG,10.2 z-score
GCCGATATCAGTATCGAGACGTGCTAG,4.06 z-score
GAAGATATCAGTTTCGAGACGTGCTAG,6.51 z-score
ATATACCTGTATATCTTCAGGTGCTAG,0.362 z-score
